# Results from different studies.
# ± gives the spread as reported.
# Cell line: NCI-H460
Structure (SMILES),test,conditions,IC50
Cc1ccc(-c2nn(-c3ccccc3)cc2C2CC(c3ccc(Br)cc3)=NN2C(=O)CCC(=O)O)cc1 (stereo not shown),"cell growth or viability, flow cytometry",48 h,38 µM
O=C(O)Cc1ccccc1Nc1c(Cl)cccc1Cl.O=C(O)Cc1ccccc1Nc1c(Cl)cccc1Cl.c1cnc2c(c1)ccc1cccnc12.c1cnc2c(c1)ccc1cccnc12,"cell viability, MTT",48 h,4.74 ± 0.86 µM
CCOc1ccc2cc(C3CC(c4ccc(Br)cc4)=NN3C(=O)CCC(=O)O)c(Cl)nc2c1 (stereo not shown),"cell growth or viability, flow cytometry",48 h,30.8 µM
O=c1c(/C=C/c2ccccc2Cl)nc2ccccc2n1Cc1ccccc1,"cell growth or viability, MTT",72 h,18.1 µM
CC(C)C[C@H](NC(=O)[C@@H](CSc1c(F)c(F)c(F)c(F)c1F)NC(=O)c1cc(Cl)ccc1Cl)C(=O)[C@@]1(C)CO1,cell growth or viability,,6.67 µM
O=c1c(/C=C/c2ccccc2F)nc2ccccc2n1Cc1ccccc1,"cell growth or viability, MTT",72 h,16.8 µM
CC(C)C[C@H](NC(=O)[C@@H]1CS(=O)(=O)CCCCCCCCCC(=O)N[C@@H](C(C)C)C(=O)N1)C(=O)[C@@]1(C)CO1,cell growth or viability,,0.012 µM
O=c1c(/C=C/c2ccccc2Br)nc2ccccc2n1Cc1ccccc1,"cell growth or viability, MTT",72 h,21.5 µM
CC(C)C[C@H](NC(=O)CNC(=O)c1cc(Cl)ccc1Cl)C(=O)[C@@]1(C)CO1,cell growth or viability,,9.1 µM
COc1ccc(-c2nn(-c3ccccc3)cc2C2CC(c3ccc(Br)cc3)=NN2C(=O)CCC(=O)O)cc1 (stereo not shown),"cell growth or viability, flow cytometry",48 h,31 µM
CC(C)C[C@H](NC(=O)C(CSc1c(F)c(F)c(F)c(F)c1F)NC(=O)[C@@H](NC(=O)CCc1ccccc1)C(C)C)C(=O)[C@@]1(C)CO1 (stereo in doubt),cell viability,,> 0.6 µM
COc1cccc(/C=C/c2nc3ccccc3[nH]c2=O)c1OC,"cell growth or viability, MTT",72 h,> 50 µM
CC(=O)O[C@H]1C(=O)[C@@]2(C)[C@H]([C@H](OC(=O)c3ccccc3)[C@]3(O)C[C@H](OC(=O)[C@H](O)[C@@H](NC(=O)c4ccccc4)c4ccccc4)C(C)=C1C3(C)C)[C@]1(OC(C)=O)CO[C@@H]1C[C@@H]2O,cell viability,"10 min exposure, 120 h recovery",0.024 µM

# Excerpt of the above:
Structure (SMILES),test,conditions,IC50
O=c1c(/C=C/c2ccccc2F)nc2ccccc2n1Cc1ccccc1,"cell growth or viability, MTT",72 h,16.8 µM
CC(C)C[C@H](NC(=O)[C@@H]1CS(=O)(=O)CCCCCCCCCC(=O)N[C@@H](C(C)C)C(=O)N1)C(=O)[C@@]1(C)CO1,cell growth or viability,,0.012 µM
